Results pooled from the literature.
Each line is one published result; not all experiments were run side by side. Several values in a cell are separate wells, animals, samples, runs or records. ± gives the spread as reported.

For `COc1ccc(-n2nc(C(C)=O)s/c2=N\N=C(/C)c2ccc(NC(=O)c3ccc(C)cc3)cc2)cc1`, the toxicity was 78.8% (HepG2; 0.312 µM).
`Cc1cc(Nc2ccc(NC(=O)c3ccc(Nc4ccnc5ccccc45)cc3)cc2)nc(N)n1` gave a viability of 0.343% (HBL-1; 1 µM, 120 h).
`CC[C@H]1CN2CCc3cc(OC)c(OC)cc3[C@@H]2C[C@@H]1C[C@H]1NCCc2cc(OC)c(OC)cc21` gave an inhibition of 95.8% (BT-12; cell viability, MTT; 10 µM, 72 h).
With `C=CCn1c(=O)c2cnc(Nc3ccc(N4CCN(C)CC4)cc3)nc2n1-c1ccc2c(n1)[C@@](O)(CC)CC2` the γH2AX-positive cells was 55.7% (OVCAR-3; flow cytometry; concentration not given, EdU-negative S phase).
`c1ccc2[nH]ccc2c1`: “mRNA level, LS mean” 6.99 counts per million (HCT-8; RNA-seq, measured: BHLHE40; concentration not given).
Under “cells with nuclear RelA”, `CC(Nc1nc(N2CCCC2)nc2ccccc12)c1ccccc1` (stereo not drawn) is recorded as 79.2% and 89.9% (HeLa Kyoto; RelA nuclear import, high content imaging; 0.05 µM, 3 h, together with: 1 µM PMA, 60 min).
The inhibition of `Cc1nn(-c2nc3c(F)cc(F)cc3s2)c(O)c1C(c1ccc(C(F)(F)F)cc1)c1c(C)nn(-c2nc3c(F)cc(F)cc3s2)c1O` is reported as 3.42% and -7.11% and 1.2% and -6.07% and 5.66% and 0.104% (THP1-Dual; IFN luciferase reporter; 2.5 µM, together with: HT-DNA).
The multinucleated cells of `Cc1ccc2c(c1)C(=O)[C@]1(O)CCN(c3ccc4nc(C)ccc4c3)C1=N2.Cl` is reported as 12 to 25% (human GBM lines; 5 µM, 48 h).
`COc1ccccc1S(=O)(=O)Nc1ccc2c(c1)CN(C)C(=O)N2` gave a viability of 114% (HBL-1; 0.5 µM, 120 h).
For `C=CC1=C(C)c2cc3[n-]c(cc4nc(cc5[n-]c(cc1n2)c(C)c5C=C)C(C)=C4CCC(=O)O)c(CCC(=O)O)c3C.[Zn+2]`, the fold change was 1.56 (SH-SY5Y; RNA-seq, measured: PLK2 mRNA; 5 µM, 5 h; baseline: untreated cells).
With `O=C(CCCCCCC(=O)Nc1ccc(I)cc1)NO` the viability was 0.509% (HBL-1; 1 µM, 120 h).
The sarcomere length of `CC(C)NCC(O)c1ccc(O)c(O)c1` (stereo not drawn) is reported as 1.79 µm (mouse ventricular cardiomyocytes; dose not given, 0.075 s).
Under “log2 fold change”, `Cc1cc(Nc2ncc(Cl)c(Nc3ccccc3S(=O)(=O)C(C)C)n2)c(OC(C)C)cc1C1CCNCC1` is recorded as -2.1 (CLB-GE; phosphoproteomics LC-MS/MS, measured: GNAS phosphorylation; 200 nM, 60 min; baseline: untreated).
The EC50 of `COc1cnc2cccc(N3CCc4c(cc(Cn5ccnc5C)cc4-c4cn(C)nc4C(F)(F)F)C3=O)c2c1` is reported as 16.5 µM (HuTu80; cell growth, inhibitor; 120 h).
With `Nc1nc(S)nc(O)c1N=Cc1cn(-c2ccccc2)nc1-c1ccc(Cl)cc1` the CC30 was 9.08 µM (CCRF-CEM; differential nuclear staining).
`O=C(C[C@@H](C(F)F)n1ccc(F)n1)N1CCC(O)(Cn2cnc3c(cnn3-c3ccc(F)cc3)c2=O)CC1` gave an IC50 of 0.0941 µM (CHP-212 parental; cell viability, SRB; mean of 3 runs).
`Cn1cc(Nc2nccc(-c3ccc4c(c3)CN(C3COC3)CC[C@H]4NC(=O)c3cn(C(C)(C)C)nn3)n2)cn1`: “pathway activation z-score” 2.89 (mouse splenic B cells; measured: ErbB signalling; 30 mg/kg, IgD-activated in vivo; baseline: vehicle, direction not given).
The selectivity ratio of `CCCOc1nc(-c2cccc(O)c2)cc(-c2cc3cc(Cl)ccc3nc2N2CCOCC2)c1C#N` is reported as 0.25 (NFS-60; MTT; baseline: WI-38 EC50 over NFS-60 IC50).
`CCn1cc(-c2cc(Cn3ccoc3=N)cc3c2CCN([C@@H](C)c2cc(OC)ccn2)C3=O)c(C(F)(F)F)n1` gave an EC50 of 0.142 µM (ChaGo-K-1; cell growth, inhibitor; 120 h).
With `COc1cc2c(Oc3ccc(NC(=O)C4(C(=O)Nc5ccc(F)cc5)CC4)cc3F)ccnc2cc1OCCCN1CCOCC1` the inhibition was 95.4% (BT-12; cell viability, MTT; 10 µM, 72 h).
For `CCOc1nc(NC(=O)Cc2cc(OC)ccc2OC)cc(N)c1C#N`, the inhibition was 29% (HeLa expressing Ub(G76V)-GFP; Ub(G76V)-GFP degradation, cycloheximide chase; 12 µM).
`Cn1cc(-c2ccc(-c3cncc(Cl)c3N3CCC4(CCNC4=O)CC3)cc2)cn1` — result for “log2 fold change”: 2.73 (COLO 205; gene expression, microarray, measured: MMP2 mRNA; concentration not given, 2 h; baseline: untreated cells).
Under “cells with nuclear RelA”, `CCS(=O)(=O)c1nc(C2CC2)cc(C(F)(F)F)n1` is recorded as 51.1% and 64.9% (HeLa Kyoto; RelA nuclear import, high content imaging; 5.01 µM, 3 h, together with: 1 µM PMA, 60 min).
The viability of `O=C(CCCCCCC(=O)NO)NO` is reported as 138% (HBL-1; 0.1 µM, 120 h).
The inhibition of `CN(C)c1ccc(C(=C2C=CC(=[N+](C)C)C=C2)c2ccc(N(C)C)cc2)cc1` is reported as 87.9% (BT-12; cell viability, MTT; 10 µM, 72 h).
`O=C(c1ccccc1)c1ccc(N2CCOCC2)cc1O` has an inhibition of -10% (HeLa expressing Ub(G76V)-GFP; Ub(G76V)-GFP degradation, cycloheximide chase; 12 µM).
For `CC/C(=N\NC(=O)NCc1cccc(O)c1)c1ccc(O)c(C)c1O`, the protein level was 1.06 ± 0.17 (SK-OV-3; Western blot, measured: YAP; 10 µM, 1 h, 3D gellan gum culture, unit not given; baseline: β-actin).
`Nc1ccccc1NC(=O)c1ccc(CNc2nccc(-c3cccnc3)n2)cc1` has an inhibition of 95% (BT-12; cell viability, MTT; 10 µM, 72 h).
`NC(=O)C1CCCc2c1[nH]c1ccc(Cl)cc21` (racemic) gave a viability of 104% (HBL-1; 1 µM, 120 h).
`COc1cccc2c1C(=O)c1c(O)c3c(c(O)c1C2=O)C[C@@](O)(C(=O)CO)C[C@@H]3O[C@H]1C[C@H](N)[C@H](O)[C@H](C)O1` gave a maximal cytotoxicity of 88.5% (PANC-1; WST-1; concentration not given, 72 h, highest tested concentration).
`COc1cc(/C=C/C(=O)N2CCC=CC2=O)cc(OC)c1OC` gave a mRNA level of 67 ± 1.2% (MDA-MB-468; quantitative RT-PCR, measured: MT2A; 30 µM, 8 h; baseline: untreated cells).
The viability of `COC(=O)/C=C/C(=O)N(O)CCCCNCc1ccc(COC(=O)Nc2cccc3ccccc23)cc1` is reported as 119% (HBL-1; 0.1 µM, 120 h).
The inhibition of `CCCC(=O)Oc1ccc2[nH]c(C(=O)c3cc4ccccc4[nH]3)cc2c1` is reported as 5% (HeLa expressing Ub(G76V)-GFP; Ub(G76V)-GFP degradation, inhibitor, cycloheximide chase; 12 µM).
`Oc1ccc(/C=C/c2cc(O)cc(O)c2)cc1` gave a viability of 114% (HBL-1; 0.1 µM, 120 h).
For `O=C1Nc2ccc(Cl)cc2/C1=C/c1cc(Cl)c(O)c(Cl)c1`, the inhibition was 25% (HeLa expressing Ub(G76V)-GFP; Ub(G76V)-GFP degradation, cycloheximide chase; 12 µM).
For `Nc1ncnc2c1ncn2[C@@H]1O[C@H](CSCC[C@H](N)C(=O)O)[C@@H](O)[C@H]1O`, the viability was 94.9% (HBL-1; 1 µM, 120 h).
`COc1cc2ncnc(Nc3ccc(Oc4ccccc4)c(C)c3C)c2cc1OC.Cl` — result for “average fractional effect”: 6% (LoVo (KRAS G13D); cell viability, resazurin; 0.1 µM, 72 h, together with: trametinib 0 nM; baseline: DMSO).
`CCC[C@H](NC(=O)/C(C#N)=C/c1cccc(Br)n1)c1ccccc1` gave an inhibition of 93.6% (BT-12; cell viability, MTT; 10 µM, 72 h).
For `COc1ccc(OC)c2c(=S)c3ccccc3[nH]c12`, the inhibition was -6% (HeLa expressing Ub(G76V)-GFP; Ub(G76V)-GFP degradation, cycloheximide chase; 12 µM).
For `COc1ccc(NC(=O)Nc2cccc(-c3cn(Cc4ccccc4C)nn3)c2)cc1`, mRNA level read “no effect” (Huh-7; RT-PCR, measured: TNFa, Gpx4, Nrf2; 10 µM, 72 h).
`CCn1cc(-c2cc(Cn3ccnc3)cc3c2CCN([C@H](c2cc(OC)ccn2)C2CC2)C3=O)c(C(F)(F)F)n1` gave an EC50 of 4.41 µM (Huh-7; cell growth, inhibitor; 120 h).
For `c1ccc2c(-c3ccncc3)c[nH]c2c1`, the inhibition was 23% (HeLa expressing Ub(G76V)-GFP; Ub(G76V)-GFP degradation, cycloheximide chase; 12 µM).
The GI50 of `O=C(/C=C/C=C/C=C/C1CCCCC1)NC1=C[C@@](O)(/C=C/C=C/C=C/C(=O)NC2=C(O)CCC2=O)[C@@H]2O[C@@H]2C1=O` is reported as 16.5 µM (LK-2; cell growth, CellTiter-Glo; 78 h).
Under “exhaustion marker expression”, `C=CC(=O)N1CCCN(C(=O)c2cc(Sc3cnc(NC(=O)C4CC4)s3)c(C)cc2OC)C[C@H]1C` is recorded as “decreased” (human CD4 T cells; measured: LAG3, TIGIT, PD1; concentration not given, 6 days, together with: chronic anti-CD3/CD28 stimulation).
With `CC1(C)CN(CCCCC(=O)N[C@@H](CCCCNC(=O)CCCCCCC(=O)NCCCC[C@H](NC(=O)N[C@@H](CCC(=O)O)C(=O)O)C(=O)O)C(=O)O)CC[N]2CC(C)(C)[S][Tc]2(=[O])[S]1` (stereo partly drawn) [technetium-99m labelled] the surface-bound activity was 3 ± 1.38 %AD/mg protein (LNCaP; 25 nM, 1 h, 37 °C).
